Experimental data of several laboratories.
Numbered parts are unrelated; each lists some results of a single study.

Study 1
Target: Sal-like protein 4, full length isoform B (SALL4, Homo sapiens, UniProt Q9UJQ4-2, residues 1-616)
Technique: universal PBM
Form: double-stranded DNA, one strand shown
Medium: in vitro
Concentration: not given
Notes: 8-mer, flanks averaged, mean of replicates
Direction: higher = stronger binding
`AGACTCGC` has an E-score of -0.247.
`GACTAGCC` gave an E-score of -0.218.
The E-score of `GTTAGTCA` is reported as 0.0528.
With `AGTATGTC` the E-score was 0.086.
`AACAAGGC` gave an E-score of -0.0818.

Study 2
Target: RNA binding protein fox-1 homolog 2, RRM domain, GST-SBP tag (RBFOX2, Homo sapiens, UniProt O43251-10, residues 100-194)
Technique: RNA Bind-n-Seq
Form: RNA
Medium: in vitro
Concentration: 365 nM
Notes: natural RNA segment, single round, ends assumed
Relative to: no-protein control
Direction: higher = stronger binding
Residues (chain): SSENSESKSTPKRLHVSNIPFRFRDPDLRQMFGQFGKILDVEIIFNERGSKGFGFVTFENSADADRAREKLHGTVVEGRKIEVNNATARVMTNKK
For `GGGAGUUCUACAGUCCGACGAUCGAGGGCCGGGGGAAGACCCACUGAGCUGGGCAGGACACAGGCGAGCUCAGGUGAUGCCGGCCACCAGCAAUGCCUGGCCUGGUAGCUCCGCUUCUGCUUUCACCAAGAGAUGGAAUUCUCGGGUGCCAA`, “RBNS enrichment (R)” read 0.987.
For `GGGAGUUCUACAGUCCGACGAUCUAGUCUAAAUUAUUUCAACUGGAAAAAAGAAAAAAGAGUCCUCUUCUUUUCCCAGCCUUUUGCAGAACACAGUAGACAGAACUGCCACCUUCAAUUGGUACUUUAUUCUUUGGAAUUCUCGGGUGCCAA`, “RBNS enrichment (R)” read 0.312.
Under “RBNS enrichment (R)”, `GGGAGUUCUACAGUCCGACGAUCCUCCUUUGUGAGCCACAGUUGUAGACCGUACCUCAGCCUUGGAGUCAACACAGCCCACAGCCCAUUUUACAGAAACCAAAACUGAGUUCUAACAGGAGGAGUGAUUUGCCUGGAAUUCUCGGGUGCCAA` is recorded as 0.313.

Single results of other studies
WRKY11 DNA-binding domain: Probable WRKY transcription factor 11, DNA-binding domain (WRKY11, Arabidopsis thaliana, UniProt Q9SV15, residues 228-325)
UniProt Q9SV15, sequence (228-325, looked up): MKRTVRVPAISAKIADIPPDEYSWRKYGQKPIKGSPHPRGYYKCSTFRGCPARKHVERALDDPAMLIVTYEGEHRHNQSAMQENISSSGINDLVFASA
`AAAAAACGGTAAGTCGACAAAA` gave a relative absorbance of 15 % of maximum (WRKY11 DNA-binding domain; DNA-protein interaction ELISA; double-stranded DNA, one strand shown, in vitro, bacterial lysate; not given, whole dsDNA probe, crude lysate protein; relative to: highest signal in screen, higher = stronger binding).
For `PhoQ, residues 284 288 289 292 302 303 SNGLAW`, the fold induction was 15.6 (PhoP, residues 12 14 15 18 19 LYFRQ (Escherichia coli, UniProt P23836); Sort-seq, measured: YFP reporter; E. coli; PhoQ-PhoP variant library, added: 10 µM Mg2+; relative to: high Mg2+ state, higher = stronger signaling).
`AAAAAAGTCGTCACGCACGTGAATACAAAA` has a relative absorbance of 32.9 % of maximum (WRKY11 DNA-binding domain; DNA-protein interaction ELISA; double-stranded DNA, one strand shown, in vitro, bacterial lysate; not given, whole dsDNA probe, crude lysate protein; relative to: highest signal in screen, higher = stronger binding).

Some of these lines once more (study 1):
`AACAAGGC` gave an E-score of -0.0818.
